Published values of several laboratories.
Each numbered part is a random draw from the data of one study; scales do not carry over between parts.
Sequence of UniProt Q04771 (whole entry, looked up): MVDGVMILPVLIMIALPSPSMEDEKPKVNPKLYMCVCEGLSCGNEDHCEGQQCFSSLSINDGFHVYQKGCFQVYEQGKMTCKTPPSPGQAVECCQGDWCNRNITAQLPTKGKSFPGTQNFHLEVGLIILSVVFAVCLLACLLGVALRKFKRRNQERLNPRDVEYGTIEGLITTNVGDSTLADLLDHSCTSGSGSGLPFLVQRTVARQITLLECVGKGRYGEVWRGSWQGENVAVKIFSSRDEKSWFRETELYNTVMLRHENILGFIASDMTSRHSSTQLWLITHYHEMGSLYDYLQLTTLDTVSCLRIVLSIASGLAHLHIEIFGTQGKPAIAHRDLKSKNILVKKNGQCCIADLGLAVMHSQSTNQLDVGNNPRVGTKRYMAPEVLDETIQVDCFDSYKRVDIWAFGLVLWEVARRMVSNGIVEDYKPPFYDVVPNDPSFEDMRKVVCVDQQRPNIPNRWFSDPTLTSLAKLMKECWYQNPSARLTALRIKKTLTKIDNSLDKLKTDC
Sequence of UniProt P06241 (whole entry, looked up): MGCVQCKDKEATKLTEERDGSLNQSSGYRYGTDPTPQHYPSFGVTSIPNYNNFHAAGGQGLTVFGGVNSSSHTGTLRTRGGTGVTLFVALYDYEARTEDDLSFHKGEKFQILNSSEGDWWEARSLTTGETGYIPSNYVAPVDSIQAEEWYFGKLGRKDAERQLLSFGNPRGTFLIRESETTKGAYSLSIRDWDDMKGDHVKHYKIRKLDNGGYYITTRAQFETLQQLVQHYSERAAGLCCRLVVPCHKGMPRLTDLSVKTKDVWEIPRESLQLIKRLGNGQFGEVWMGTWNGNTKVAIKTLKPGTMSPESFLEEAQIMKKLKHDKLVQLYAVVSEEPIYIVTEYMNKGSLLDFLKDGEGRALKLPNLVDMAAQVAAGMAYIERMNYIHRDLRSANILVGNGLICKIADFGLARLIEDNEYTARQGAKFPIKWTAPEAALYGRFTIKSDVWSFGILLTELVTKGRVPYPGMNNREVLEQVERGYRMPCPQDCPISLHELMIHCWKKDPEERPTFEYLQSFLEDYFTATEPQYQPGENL
Sequence of UniProt Q96D53 (whole entry, looked up): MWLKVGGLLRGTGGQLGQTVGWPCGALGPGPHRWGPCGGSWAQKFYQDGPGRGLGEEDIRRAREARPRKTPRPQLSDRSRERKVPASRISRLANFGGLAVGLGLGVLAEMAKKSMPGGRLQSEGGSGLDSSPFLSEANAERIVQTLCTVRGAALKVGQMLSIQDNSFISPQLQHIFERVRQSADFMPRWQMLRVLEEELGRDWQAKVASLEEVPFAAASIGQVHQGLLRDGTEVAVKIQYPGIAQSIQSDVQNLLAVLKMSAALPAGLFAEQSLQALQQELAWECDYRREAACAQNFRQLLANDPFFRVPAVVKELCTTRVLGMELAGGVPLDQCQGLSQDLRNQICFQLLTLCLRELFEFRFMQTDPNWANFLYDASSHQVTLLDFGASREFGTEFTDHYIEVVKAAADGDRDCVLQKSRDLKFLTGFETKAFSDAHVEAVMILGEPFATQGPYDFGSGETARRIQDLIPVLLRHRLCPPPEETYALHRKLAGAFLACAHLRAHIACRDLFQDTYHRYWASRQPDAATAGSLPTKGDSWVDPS
Sequence of UniProt Q9Y2K2 (whole entry, looked up): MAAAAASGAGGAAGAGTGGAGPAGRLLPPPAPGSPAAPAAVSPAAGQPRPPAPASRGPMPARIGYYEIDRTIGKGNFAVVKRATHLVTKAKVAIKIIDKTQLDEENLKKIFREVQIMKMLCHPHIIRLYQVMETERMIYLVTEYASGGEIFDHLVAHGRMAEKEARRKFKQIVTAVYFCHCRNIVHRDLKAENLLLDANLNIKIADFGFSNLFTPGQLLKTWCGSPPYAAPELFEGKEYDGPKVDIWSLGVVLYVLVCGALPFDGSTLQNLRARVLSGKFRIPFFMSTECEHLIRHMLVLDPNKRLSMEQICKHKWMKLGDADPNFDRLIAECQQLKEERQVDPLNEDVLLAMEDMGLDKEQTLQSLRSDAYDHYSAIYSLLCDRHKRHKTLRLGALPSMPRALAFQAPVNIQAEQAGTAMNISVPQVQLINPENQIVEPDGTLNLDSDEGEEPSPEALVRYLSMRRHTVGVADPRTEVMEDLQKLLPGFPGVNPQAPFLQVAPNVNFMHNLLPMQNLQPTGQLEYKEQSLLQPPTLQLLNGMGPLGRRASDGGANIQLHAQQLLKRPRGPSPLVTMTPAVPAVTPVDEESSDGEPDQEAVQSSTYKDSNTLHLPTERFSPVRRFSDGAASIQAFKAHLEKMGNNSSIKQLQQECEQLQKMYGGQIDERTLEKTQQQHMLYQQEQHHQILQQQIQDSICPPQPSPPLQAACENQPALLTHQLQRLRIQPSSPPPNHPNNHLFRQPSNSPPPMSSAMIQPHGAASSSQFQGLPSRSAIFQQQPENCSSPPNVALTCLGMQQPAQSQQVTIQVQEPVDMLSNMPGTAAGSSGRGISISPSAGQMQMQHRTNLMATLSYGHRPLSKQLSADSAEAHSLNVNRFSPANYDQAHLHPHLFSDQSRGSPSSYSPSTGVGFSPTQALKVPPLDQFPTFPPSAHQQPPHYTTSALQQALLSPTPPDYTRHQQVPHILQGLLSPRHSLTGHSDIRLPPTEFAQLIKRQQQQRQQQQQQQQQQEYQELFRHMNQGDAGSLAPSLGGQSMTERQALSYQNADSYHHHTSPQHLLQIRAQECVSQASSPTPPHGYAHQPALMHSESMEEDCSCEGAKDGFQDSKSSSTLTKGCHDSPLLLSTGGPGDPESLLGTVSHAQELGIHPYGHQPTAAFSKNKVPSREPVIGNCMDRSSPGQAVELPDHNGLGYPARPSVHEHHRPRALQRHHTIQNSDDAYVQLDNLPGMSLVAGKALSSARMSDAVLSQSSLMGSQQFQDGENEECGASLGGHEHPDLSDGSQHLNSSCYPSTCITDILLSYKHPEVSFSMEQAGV
Sequence of UniProt Q96RG2 (whole entry, looked up): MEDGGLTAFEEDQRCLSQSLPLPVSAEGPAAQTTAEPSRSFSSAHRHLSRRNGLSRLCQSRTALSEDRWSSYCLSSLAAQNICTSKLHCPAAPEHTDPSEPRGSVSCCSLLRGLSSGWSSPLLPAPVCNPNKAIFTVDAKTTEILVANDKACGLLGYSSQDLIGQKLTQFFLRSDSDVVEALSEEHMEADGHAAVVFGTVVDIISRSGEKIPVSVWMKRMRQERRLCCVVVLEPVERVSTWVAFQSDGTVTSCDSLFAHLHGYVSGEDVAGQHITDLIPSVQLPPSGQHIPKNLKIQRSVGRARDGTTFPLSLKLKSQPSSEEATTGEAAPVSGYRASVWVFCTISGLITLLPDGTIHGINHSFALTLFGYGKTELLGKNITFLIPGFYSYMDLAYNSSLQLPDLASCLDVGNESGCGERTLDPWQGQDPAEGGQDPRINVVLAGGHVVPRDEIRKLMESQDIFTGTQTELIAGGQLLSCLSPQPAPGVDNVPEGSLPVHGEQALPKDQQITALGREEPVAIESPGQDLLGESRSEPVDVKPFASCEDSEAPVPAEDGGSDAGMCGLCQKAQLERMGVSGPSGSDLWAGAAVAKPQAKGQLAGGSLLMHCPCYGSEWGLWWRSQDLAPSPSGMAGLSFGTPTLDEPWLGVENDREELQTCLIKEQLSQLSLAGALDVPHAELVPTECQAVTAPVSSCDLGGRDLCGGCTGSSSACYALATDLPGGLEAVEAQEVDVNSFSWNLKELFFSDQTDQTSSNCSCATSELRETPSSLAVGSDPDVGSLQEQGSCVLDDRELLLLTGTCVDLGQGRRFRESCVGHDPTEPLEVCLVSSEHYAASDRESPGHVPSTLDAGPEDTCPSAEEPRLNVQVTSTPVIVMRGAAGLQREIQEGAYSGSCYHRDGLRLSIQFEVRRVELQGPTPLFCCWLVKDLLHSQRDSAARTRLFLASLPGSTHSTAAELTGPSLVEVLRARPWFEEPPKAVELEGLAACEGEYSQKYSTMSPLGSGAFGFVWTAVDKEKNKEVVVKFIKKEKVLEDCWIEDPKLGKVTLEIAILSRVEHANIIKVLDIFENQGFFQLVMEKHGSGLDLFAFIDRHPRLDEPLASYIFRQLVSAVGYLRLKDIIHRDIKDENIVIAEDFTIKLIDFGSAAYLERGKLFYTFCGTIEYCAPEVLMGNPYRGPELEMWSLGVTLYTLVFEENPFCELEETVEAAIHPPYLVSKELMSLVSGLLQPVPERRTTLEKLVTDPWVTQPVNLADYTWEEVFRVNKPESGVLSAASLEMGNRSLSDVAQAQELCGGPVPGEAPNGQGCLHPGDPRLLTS
Sequence of UniProt Q00526 (whole entry, looked up): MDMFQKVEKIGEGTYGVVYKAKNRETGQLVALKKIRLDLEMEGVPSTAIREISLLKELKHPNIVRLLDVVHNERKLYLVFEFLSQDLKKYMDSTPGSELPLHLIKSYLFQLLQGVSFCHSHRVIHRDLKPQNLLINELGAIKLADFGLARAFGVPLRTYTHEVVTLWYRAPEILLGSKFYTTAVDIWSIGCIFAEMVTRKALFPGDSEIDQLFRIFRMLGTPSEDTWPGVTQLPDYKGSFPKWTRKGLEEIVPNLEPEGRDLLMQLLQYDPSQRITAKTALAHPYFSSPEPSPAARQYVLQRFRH

Block 1 — Structure (SMILES): O=c1cc(N2CCOCC2)oc2c1ccc1ccccc12; observed: enzyme activity; action: inhibitor; tested at: 0.5 µM; baseline: control; measurement: remaining activity
Megakaryocyte-associated tyrosine-protein kinase (MATK, Homo sapiens, UniProt P42679): 90.7%
PAS domain-containing serine/threonine-protein kinase (PASK, Homo sapiens, UniProt Q96RG2): 94.9%
RAC-alpha serine/threonine-protein kinase (AKT1, Homo sapiens, UniProt P31749): 101%
Proto-oncogene tyrosine-protein kinase Src (SRC, Homo sapiens, UniProt P12931): 99.3%
Tyrosine-protein kinase ITK/TSK (ITK, Homo sapiens, UniProt Q08881): 100%
Serine/threonine-protein kinase TAO3 (TAOK3, Homo sapiens, UniProt Q9H2K8): 98.7%
Tyrosine-protein kinase Fer (FER, Homo sapiens, UniProt P16591): 91.2%
Serine/threonine-protein kinase 25 (STK25, Homo sapiens, UniProt O00506): 94.8%
LIM domain kinase 1 (LIMK1, Homo sapiens, UniProt P53667): 98%
Homeodomain-interacting protein kinase 1 (HIPK1, Homo sapiens, UniProt Q86Z02): 102%
Cyclin-dependent kinase 3, with cyclin E (CDK3, Homo sapiens, UniProt Q00526): 102%
Vascular endothelial growth factor receptor 3 (FLT4, Homo sapiens, UniProt P35916): 112%
cAMP-dependent protein kinase catalytic subunit PRKX (PRKX, Homo sapiens, UniProt P51817): 96.6%
Insulin receptor (INSR, Homo sapiens, UniProt P06213): 92.3%
Tyrosine-protein kinase Fyn (FYN, Homo sapiens, UniProt P06241): 113%
Serine/threonine-protein kinase MRCK alpha (CDC42BPA, Homo sapiens, UniProt Q5VT25): 87.6%
ALK tyrosine kinase receptor (ALK, Homo sapiens, UniProt Q9UM73): 104%
Serine/threonine-protein kinase Nek11 (NEK11, Homo sapiens, UniProt Q8NG66): 99.1%
Serine/threonine-protein kinase NLK (NLK, Homo sapiens, UniProt Q9UBE8): 103%
Tyrosine-protein kinase Fgr (FGR, Homo sapiens, UniProt P09769): 94.6%
Serine/threonine-protein kinase N1 (PKN1, Homo sapiens, UniProt Q16512): 106%
MAP/microtubule affinity-regulating kinase 3 (MARK3, Homo sapiens, UniProt P27448): 110%

Block 2 — observed: cell-free assay; technique: competition with immobilised ligand; tested at: 1 µM; measurement: remaining binding
SMILES: COc1ccc2c(c1)O[C@@H](c1ccc(OC)c(OC)c1)C[C@H]2NC(=O)C1(c2ccc3c(c2)OC(F)(F)O3)CC1
Mitogen-activated protein kinase 13 (MAPK13, Homo sapiens, UniProt O15264): 97%
Serine/threonine-protein kinase Sgk1 (SGK1, Homo sapiens, UniProt O00141): 85%
Tyrosine-protein kinase ABL1, non-phosphorylated (ABL1, Homo sapiens, UniProt P00519): 86%
Macrophage colony-stimulating factor 1 receptor (CSF1R, Homo sapiens, UniProt P07333): 100%
Serine/threonine-protein kinase MAK (MAK, Homo sapiens, UniProt P20794): 93%
Epidermal growth factor receptor (EGFR, Homo sapiens, UniProt P00533, del747-750/T751S): 100%
Homeodomain-interacting protein kinase 3 (HIPK3, Homo sapiens, UniProt Q9H422): 77%
Aurora kinase B (AURKB, Homo sapiens, UniProt Q96GD4): 84%
Casein kinase I isoform alpha-like (CSNK1A1L, Homo sapiens, UniProt Q8N752): 100%
Receptor-interacting serine/threonine-protein kinase 4 (RIPK4, Homo sapiens, UniProt P57078): 67%
Serine/threonine-protein kinase DCLK2 (DCLK2, Homo sapiens, UniProt Q8N568): 86%
Phosphatidylinositol 4-phosphate 5-kinase type-1 gamma (PIP5K1C, Homo sapiens, UniProt O60331): 92%
Serine/threonine-protein kinase Nek3 (NEK3, Homo sapiens, UniProt P51956): 76%
Serine/threonine-protein kinase/endoribonuclease IRE1 (ERN1, Homo sapiens, UniProt O75460): 100%

Block 3 — tested at: 1 µM; measurement: remaining binding
Compound: CN1CCN(C(=O)c2ccc(NC(=O)Nc3ccc(N(C)c4ccnc(Nc5ccc(CS(C)(=O)=O)cc5)n4)cc3)cc2)CC1
Activin receptor type-1 (ACVR1, Homo sapiens, UniProt Q04771); competitive binding panel; baseline: vehicle: 28%
Phosphatidylinositol 4,5-bisphosphate 3-kinase catalytic subunit alpha isoform (PIK3CA, Homo sapiens, UniProt P42336); competitive binding panel; baseline: vehicle: 98%
Serine/threonine-protein kinase RIO3 (RIOK3, Homo sapiens, UniProt O14730); competitive binding panel; baseline: vehicle: 0%
Dual specificity mitogen-activated protein kinase kinase 4 (MAP2K4, Homo sapiens, UniProt P45985); competitive binding panel, item: MEK4; baseline: vehicle: 6%
Serine/threonine-protein kinase WNK3 (WNK3, Homo sapiens, UniProt Q9BYP7); competitive binding panel; baseline: vehicle: 93%
Cyclin-dependent kinase 2 (CDK2, Homo sapiens, UniProt P24941); competitive binding panel; baseline: vehicle: 87%
Atypical kinase COQ8B, mitochondrial (COQ8B, Homo sapiens, UniProt Q96D53); competitive binding panel, item: ADCK4; baseline: vehicle: 47%
Serine/threonine-protein kinase ULK2 (ULK2, Homo sapiens, UniProt Q8IYT8); competitive binding panel; baseline: vehicle: 78%
Serine/threonine-protein kinase SIK3 (SIK3, Homo sapiens, UniProt Q9Y2K2); competitive binding; QSK: 86%
Cyclin-dependent kinase 13 (CDK13, Homo sapiens, UniProt Q14004); competitive binding panel, item: CDC2L5; baseline: vehicle: 13%
Serine/threonine-protein kinase Nek2 (NEK2, Homo sapiens, UniProt P51955); competitive binding panel; baseline: vehicle: 89%
Dual specificity protein kinase CLK4 (CLK4, Homo sapiens, UniProt Q9HAZ1); competitive binding panel; baseline: vehicle: 100%
Serine/threonine-protein kinase 32C (STK32C, Homo sapiens, UniProt Q86UX6); competitive binding panel, item: YANK3; baseline: vehicle: 100%
Receptor-interacting serine/threonine-protein kinase 1 (RIPK1, Homo sapiens, UniProt Q13546); competitive binding panel; baseline: vehicle: 100%

Block 4 — observed: enzyme activity; action: inhibitor; tested at: 10 µM; measurement: inhibition
Target: Calcium/calmodulin-dependent protein kinase type II subunit alpha (CAMK2A, Homo sapiens, UniProt Q9UQM7)
Sequence of UniProt Q9UQM7 (whole entry, looked up): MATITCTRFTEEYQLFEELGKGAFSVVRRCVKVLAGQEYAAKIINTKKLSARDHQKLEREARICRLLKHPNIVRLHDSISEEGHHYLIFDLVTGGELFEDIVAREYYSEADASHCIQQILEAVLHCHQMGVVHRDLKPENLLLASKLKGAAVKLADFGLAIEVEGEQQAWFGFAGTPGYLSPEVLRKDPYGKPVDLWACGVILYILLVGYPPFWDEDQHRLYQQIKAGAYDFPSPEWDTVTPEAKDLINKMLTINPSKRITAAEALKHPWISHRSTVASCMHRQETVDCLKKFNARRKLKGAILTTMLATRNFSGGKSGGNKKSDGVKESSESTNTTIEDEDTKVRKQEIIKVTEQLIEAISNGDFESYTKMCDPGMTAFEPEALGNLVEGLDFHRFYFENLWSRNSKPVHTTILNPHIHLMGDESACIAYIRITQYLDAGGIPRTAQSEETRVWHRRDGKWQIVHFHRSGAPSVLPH
OCCN1CCN(CC/C=C2/c3ccccc3Sc3ccc(C(F)(F)F)cc32)CC1: 7%
COC(=O)[C@@]1(C)CC[C@]2(C(=O)O[C@@H]3O[C@H](CO)[C@@H](O)[C@H](O)[C@H]3O)CC[C@]3(C)C(=CC[C@@H]4[C@@]5(C)C[C@H](O)[C@H](O[C@@H]6OC[C@@H](O[C@@H]7O[C@H](CO)[C@@H](O)[C@H](O)[C@H]7O)[C@H](O)[C@H]6O)[C@@](C)(CO)[C@@H]5CC[C@]43C)[C@@H]2C1: -54%
CC(C)(O)[C@H](O)COc1c2ccoc2cc2oc(=O)ccc12: 24%
CCCCC(CC)CCC(=O)O (centres unmarked): 22%
C[C@H]1CC[C@@]2(OC1)O[C@H]1C[C@H]3[C@@H]4CC[C@@H]5C[C@@H](O[C@@H]6O[C@H](CO)[C@H](O)[C@H](O)[C@H]6O[C@@H]6O[C@H](CO)[C@@H](O)[C@H](O)[C@H]6O)CC[C@]5(C)[C@H]4CC[C@]3(C)[C@H]1[C@@H]2C: -2%
Nc1nc2ncc([C@H](O)[C@H](O)CO)nc2c(=O)[nH]1: -14%
CC(=O)NC[C@H]1CN(c2ccc(N3CCOCC3)c(F)c2)C(=O)O1: -16%
C[C@H]1O[C@@H](O[C@H]2CC[C@@]3(C)[C@@H](CC[C@]4(C)[C@@H]3C=CC3=C5CC(C)(C)CC[C@]5(CO)[C@H](O)C[C@]34C)[C@]2(C)CO)[C@H](O)[C@@H](O)[C@H]1O: 11%
CC(=O)c1ccccc1O: 19%
CCCCCCCCCCCCC(=O)O: 34%
O=C(NC1CCNCC1)[C@@H]1CC[C@@H]2CN1C(=O)N2OS(=O)(=O)O: -6%
CCOC(=O)NCCCC(=O)NCCc1ccccc1: -21%
